# Measurements from different studies.
# Lines come from different studies, so protocols differ. ± gives the spread as reported.
SMILES,assay,system,setting,scale,measurement,value
O=C(O)[C@H]1O[C@@H](N(Cc2ccc(C(F)(F)F)nc2)c2ccc(Cc3c[nH]c4ncc(Cl)cc34)cn2)[C@H](O)[C@@H](O)[C@@H]1O,,"healthy men, urine","oral, 400 mg of [14C]-pexidartinib",relative to: radioactive dose,dose excreted,10.3%
CCN1/C(=C/C=C2\CCCC(/C=C/C3=[N+](CC)c4ccccc4C3(C)C)=C2NCCCCCCCCN2CCC(Nc3nc4ccccc4n3Cc3ccc(F)cc3)CC2)C(C)(C)c2ccccc21,dynamic light scattering,saline,10 µM,,particle diameter,367 nm
OCc1cn(Cc2ccc(-c3noc(-c4ccc(OCC[18F])c(C(F)(F)F)c4)n3)cc2)nn1,,"female Lewis rat, lung","intravenous, 120 min",,tissue uptake,1.54 ± 0.07 %ID/g
CCCC[C@H](NC(=O)CNC(=O)CNC(=O)CN1CCN(CC(=O)O)CCN(CC(=O)O)CC1)C(=O)N[C@H]1CC(=O)NCCCC[C@@H](C(N)=O)NC(=O)[C@H](Cc2c[nH]c3ccccc23)NC(=O)[C@H](CCCNC(=N)N)NC(=O)[C@@H](Cc2ccccc2)NC(=O)[C@H](Cc2c[nH]cn2)NC1=O [gallium-67 labelled],,"female C57 mice, B16/F1 melanoma","intravenous, 0.037 MBq, 2 h",relative to: tumour over liver,tumour to tissue ratio,42.4
CC(C)CCCC(C)CCCC(C)CCO[C@@H]1O[C@H](CO)[C@@H](O[C@H]2O[C@H](CO)[C@@H](O)[C@H](O)[C@H]2O)[C@H](O)[C@H]1O (stereo partly drawn),dynamic surface tension,,0.0145 mmol/L,,induction time,25.6 s
Cc1ccc(/N=N/c2c(O)ccc3ccccc23)c(C)c1,,rat whole blood extract,"0.2 µg/L, 30 days, -20 °C, long-term storage",,stability deviation,-2%
CC(C)[C@H](NC(=O)[C@@H]1CCCN1C(=O)[C@H](CCCNC(=N)N)NC(=O)[C@H](CS)NC(=O)[C@H](Cc1c[nH]c2ccccc12)NC(=O)[C@H](CCCNC(=N)N)NC(=O)[C@@H](Cc1ccccc1)NC(=O)[C@H](Cc1c[nH]cn1)NC(=O)[C@H](CCC(=O)O)NC(=O)[C@H](CS)NC(=O)[C@H](CS)NC(=O)COCCOCCNC(=O)[C@@H]1CC(=O)N[C@@H](CCCNC(=N)N)C(=O)NCC(=O)N[C@@H](CC(=O)O)C(=O)N[C@H](Cc2ccc(O)cc2)C(=O)N1)C(N)=O [technetium-99m labelled],,"nude mouse, M21 melanoma xenograft, tumour over lung","intravenous, 0.037 MBq, 2 h",relative to: tumour over lung,tumour-to-tissue ratio,2.16 ± 1.43
O=c1c(Cc2ccccc2)nc2ccccc2n1-c1ccc([N+](=O)[O-])cc1[N+](=O)[O-],MTT,"rat primary colonocytes, Albino rat, male","72 h, concentration at 100% viability",,safe concentration,0.108 ± 0.013 µM
NCCCC(=O)OCC(=O)c1ccc(O)cc1F.O=C(O)C(F)(F)F,"photolysis, refers to: rearranged acid appearance",aqueous HEPES buffer with LiClO4,pH 8.2,,quantum yield,0.03
CN1C(=O)[C@@H](Cc2ccc(O)c(I)c2)NC(=O)CNC(=O)[C@H](Cc2ccc3ccccc3c2)NC(=O)[C@H](CCCNC(=N)N)NC(=O)[C@H]1CCCNC(=O)c1ccc(CNC(=O)CN2CCN(CC(=O)O)CCN(CC(=O)O)CCN(CC(=O)O)CC2)cc1 [lutetium-177 labelled],SPECT/CT and planar imaging,"human, bone marrow",,,absorbed organ dose,0.97 mGy/MBq
CN[C@@H]1[C@H](O)[C@H](NC)[C@H]2O[C@]3(O)[C@H](O[C@@H]2[C@H]1O)O[C@H](C)C[C@@]3(O)CNCc1ccc(OC(F)(F)F)cc1,,rat,"iv, 10 mg/kg",,clearance,0.53 L/h/kg
CC(C)c1cnc(-c2cc(Cl)ccc2F)cc1Nc1ccncc1C(=O)NC(CO)CO,,"patients, phase I monotherapy","oral, dose not given, grade 4",,patients with AST increase,0%
NCCCC(=O)OCC(=O)c1cc(F)c(O)c(F)c1.O=C(O)C(F)(F)F,"photolysis, refers to: rearranged acid appearance",unbuffered water,,,quantum yield,0.1
CC(C)[C@H](NC(=O)CNC(=O)[C@H](CCC(N)=O)NC(=O)[C@H](C)N)C(=O)O,LC-MS/MS,"human, male, plasma","intravenous, 10 mg/kg three times daily, day 3, first dose, 10 min infusion, geometric mean",,Cmax,2420 ng/mL
CCC1(CC)C[C@@H](NC(=O)Nc2cccc3c(C)nccc23)c2cc(F)ccc2O1,,"rat, abdomen","oral gavage, 41 mg/kg, 60 min",relative to: vehicle,decrease in body temperature,1.6 °C
N=C(N)NCCC[C@@H]1NC(=O)[C@H](Cc2c[nH]c3ccccc23)NC(=O)[C@@H](CC2CCCCC2)NC(=O)[C@@H]2CCCN2C(=O)[C@@H](NC(=O)CCc2ccccc2)CCCNC1=O,,"C57BL/6J mice, plasma","intravenous, 1 mg/kg, two-compartment model",,distribution rate constant k12,13.7 h⁻¹
CCCC(CCC)NC(=O)c1ccc(OC2OC(C(=O)O)C(O)C(O)C2O)c(OC)c1 (stereo not drawn),,"male Sprague-Dawley rats, plasma","oral, 50 mg/kg of parent drug",relative to: 50 over 20 mg/kg dose,Cmax ratio,2.1
COCCOCCOCCOCCC(=O)NCc1cc(CNC(=O)CCOCCOCCOCCOC)cc(-c2cc3cc4nc(c(-c5ccc(CCC(=O)O)cc5)c5[nH]c(cc6nc(c(OC)c2[nH]3)CC6(C)C)cc5-c2cc(CNC(=O)CCOCCOCCOCCOC)cc(CNC(=O)CCOCCOCCOCCOC)c2)CC4(C)C)c1,,DMF,room temperature,,B band absorption maximum,366 nm
O=C(O)[C@@H]1C[C@@H](O)CN1C(=O)[C@@H]1CCCN1,potentiometric titration,,"37 °C, MA3 complex, with: Fe(III)",,log beta,31.3
CC(C)[C@H](NC(=O)[C@@H]1CCCN1C(=O)[C@H](CCCNC(=N)N)NC(=O)[C@H](CS)NC(=O)[C@H](Cc1c[nH]c2ccccc12)NC(=O)[C@H](CCCNC(=N)N)NC(=O)[C@@H](Cc1ccccc1)NC(=O)[C@H](Cc1c[nH]cn1)NC(=O)[C@H](CCC(=O)O)NC(=O)[C@H](CS)NC(=O)[C@H](CS)NC(=O)[C@@H]1CC(=O)N[C@@H](CCCNC(=N)N)C(=O)NCC(=O)N[C@@H](CC(=O)O)C(=O)N[C@H](Cc2ccc(O)cc2)C(=O)N1)C(N)=O [technetium-99m labelled],,"C57 mouse, female, B16/F1 melanoma","intravenous, 0.037 MBq, 0.5 h",relative to: tumour over blood,tumour to tissue ratio,1.55
CCc1cc(Nc2nc(-c3ccc(-n4cnc(C)c4)c(F)c3)cs2)c(C)cc1C,,"human, both sexes, plasma","oral, 200 mg, day 1, multiple dose, geometric mean",,terminal elimination rate constant,3.03e-05 s⁻¹
C=CCc1ccc(O)c(-c2cc(CC=C)ccc2OCCCCCCCCCC[P+](c2ccccc2)(c2ccccc2)c2ccccc2)c1,,"C57BL/6 mouse, non-tumour-bearing, serum","dose not given, day 31",,total protein level,4.7 ± 0.3 g/dL
CCCC[C@H](NC(=O)CNC(=O)CNC(=O)CN1CCN(CC(=O)O)CCN(CC(=O)O)CCN(CC(=O)O)CC1)C(=O)N[C@H]1CC(=O)NCCCC[C@@H](C(N)=O)NC(=O)[C@H](Cc2c[nH]c3ccccc23)NC(=O)[C@H](CCCNC(=N)N)NC(=O)[C@@H](Cc2ccccc2)NC(=O)[C@H](Cc2c[nH]cn2)NC1=O [copper-64 labelled],,"female C57 mouse, B16/F1 melanoma","intravenous, 0.037 MBq, 0.5 h",relative to: tumour over lung,uptake ratio,1.49
CCCC[C@H](NC(C)=O)C(=O)N[C@H]1CC(=O)NCCCC[C@@H](C(=O)N[C@@H](C(=O)N2CCC[C@@H]2C(N)=O)C(C)C)NC(=O)[C@H](Cc2c[nH]c3ccccc23)NC(=O)[C@H](CCCN=C(N)N)NC(=O)[C@@H](Cc2ccc3ccccc3c2)NC(=O)[C@@H]2CCCN2C1=O,,"healthy dogs, plasma","subcutaneous, 2.25 mg/kg per day, day 1, 12 h post-dose, median",,plasma histamine,14.3 ng/mL
CC[C@H](C)[C@H](NC(=O)[C@H](N)Cc1ccc(O)cc1)C(=O)N[C@H]1CSSC[C@@H](C(=O)N(C)[C@H](C(N)=O)[C@@H](C)CC)NC(=O)[C@H](CCCNC(=N)N)NC(=O)[C@H](Cc2c[nH]cn2)NC(=O)[C@H](C)NC(=O)CN(C)C(=O)[C@H](Cc2c[nH]c3ccccc23)NC(=O)[C@H](CC(=O)O)NC(=O)[C@H](CCC(N)=O)NC(=O)[C@H](Cc2cn(C)c3ccccc23)NC(=O)[C@H](C(C)C)NC1=O,UPLC-ESI-MS,cynomolgus monkey plasma,"0.18 µg/mL, 24 h, 25 °C, bench-top after SPE",,recovery,98.9 ± 1.3%
CC(C)CCN(Cc1ccc(F)cc1)c1nc(C#N)nc(N2CCOCC2)n1,,female CD-1 mice,"intraperitoneal, 10 mg/kg, 4 h",,plasma concentration,7.4 ng/mL
O=C(CCCCC[N+]#[C][99Tc-5]([C]#[N+]CCCCCC(=O)N[C@H]1C(O)O[C@H](CO)[C@@H](O)[C@@H]1O)([C]#[N+]CCCCCC(=O)N[C@H]1C(O)O[C@H](CO)[C@@H](O)[C@@H]1O)([C]#[N+]CCCCCC(=O)N[C@H]1C(O)O[C@H](CO)[C@@H](O)[C@@H]1O)([C]#[N+]CCCCCC(=O)N[C@H]1C(O)O[C@H](CO)[C@@H](O)[C@@H]1O)[C]#[N+]CCCCCC(=O)N[C@H]1C(O)O[C@H](CO)[C@@H](O)[C@@H]1O)N[C@H]1C(O)O[C@H](CO)[C@@H](O)[C@@H]1O (stereo partly drawn),biodistribution,BALB/c nude mouse U87 MG xenograft,2 h,relative to: tumour over blood,tumour/blood ratio,17.2 ± 7.4
CCNC(=O)OCc1c(COC(=O)NCC)c(-c2ccc(OC)cc2)n2c1Cc1ccccc1-2,,"BALB/c nude mice, blood","dose not given, day 10",,mean corpuscular haemoglobin concentration,29.3 ± 0.4 g/dL
CC[C@H](C)[C@H](NC(=O)[C@H](CC(C)C)NC(=O)[C@H](Cc1c[nH]c2ccccc12)NC(=O)[C@H](C)NC(=O)[C@@H](NC(=O)[C@H](Cc1ccccc1)NC(=O)[C@H](CC(=O)O)NC(=O)[C@H](CCCNC(=N)N)NC(=O)[C@H](C)NC(=O)[C@H](C)NC(=O)[C@H](CC(C)C)NC(=O)[C@H](C)NC(=O)[C@H](CC(=O)O)NC(=O)[C@H](CC(C)C)NC(=O)[C@@H](NC(=O)[C@@H](NC(=O)[C@H](C)NC(=O)[C@H](CC(C)C)NC(=O)[C@H](CCC(=O)O)NC(=O)[C@H](CO)NC(=O)[C@H](CO)NC(=O)[C@H](Cc1ccccc1)NC(=O)[C@@H](NC(=O)CNC(=O)[C@H](CCC(=O)O)NC(=O)CNC(=O)[C@@H](N)Cc1c[nH]cn1)[C@@H](C)O)[C@@H](C)O)[C@@H](C)CC)[C@@H](C)CC)C(=O)N[C@@H](C)C(=O)N[C@H](C(=O)N[C@@H](CCCCN)C(=O)N[C@H](C(=O)N[C@H](C(=O)N[C@@H](CC(=O)O)C(=O)N[C@@H](CCCCN)C(=O)O)[C@@H](C)O)[C@@H](C)CC)[C@@H](C)O,immunoaffinity LC-MS/MS,"healthy human subjects, plasma","intravenous infusion, 1 mg single dose, infused over 15 min",,terminal half-life,2.6 h
NC12CNCCNCC(NCc3ccc(CNC(=O)CCCC(=O)NCc4ccc(-c5nncnn5)cc4)cc3)(CNCCNC1)CNCCNC2.[64Cu+2],OLINDA dosimetry,total body,"pretargeting, 120-h interval",,mean absorbed dose,0.0316 rad/mCi
COc1cc2c(cc1OC)CN(CCCCn1ccc3cc(OCC[18F])ccc31)C2,,"male CD-1 mouse, heart","intravenous, 15 min",,tracer uptake,3.54 %ID/g
COc1cc(/C=C/C(=O)NCCCCCCNC2=C3C[C@@H](C)C[C@H](OC)[C@H](O)[C@@H](C)/C=C(\C)[C@H](OC(N)=O)[C@@H](OC)/C=C\C=C(/C)C(=O)NC(=CC2=O)C3=O)ccc1O,,"Kunming mice, serum","10 mg/kg once daily, 3 days",,serum AST,199 ± 33.1 U/L
Oc1ccc2ccccc2c1/N=N/c1ccc(/N=N/c2ccccc2)cc1,,rat whole blood,"16.0 µg/L, 30 days, -20 °C, long-term storage",,stability deviation,0.8%
